Results collected from several papers.
Each numbered part is a random draw from the data of one study; scales do not carry over between parts.
UniProt P31751, sequence (whole entry, looked up): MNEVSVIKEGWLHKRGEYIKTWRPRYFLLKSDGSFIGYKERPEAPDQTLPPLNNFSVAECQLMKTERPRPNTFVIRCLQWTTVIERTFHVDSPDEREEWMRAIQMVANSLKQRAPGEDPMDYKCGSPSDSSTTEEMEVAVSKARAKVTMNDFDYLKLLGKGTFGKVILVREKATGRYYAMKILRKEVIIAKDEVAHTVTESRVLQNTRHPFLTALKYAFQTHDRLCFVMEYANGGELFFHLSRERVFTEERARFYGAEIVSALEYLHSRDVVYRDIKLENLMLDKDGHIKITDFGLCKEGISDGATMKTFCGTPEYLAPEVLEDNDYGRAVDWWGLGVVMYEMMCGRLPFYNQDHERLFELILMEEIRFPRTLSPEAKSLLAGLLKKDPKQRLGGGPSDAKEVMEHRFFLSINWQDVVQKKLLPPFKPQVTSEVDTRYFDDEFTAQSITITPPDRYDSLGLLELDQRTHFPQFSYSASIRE
UniProt Q86UE8, sequence (whole entry, looked up): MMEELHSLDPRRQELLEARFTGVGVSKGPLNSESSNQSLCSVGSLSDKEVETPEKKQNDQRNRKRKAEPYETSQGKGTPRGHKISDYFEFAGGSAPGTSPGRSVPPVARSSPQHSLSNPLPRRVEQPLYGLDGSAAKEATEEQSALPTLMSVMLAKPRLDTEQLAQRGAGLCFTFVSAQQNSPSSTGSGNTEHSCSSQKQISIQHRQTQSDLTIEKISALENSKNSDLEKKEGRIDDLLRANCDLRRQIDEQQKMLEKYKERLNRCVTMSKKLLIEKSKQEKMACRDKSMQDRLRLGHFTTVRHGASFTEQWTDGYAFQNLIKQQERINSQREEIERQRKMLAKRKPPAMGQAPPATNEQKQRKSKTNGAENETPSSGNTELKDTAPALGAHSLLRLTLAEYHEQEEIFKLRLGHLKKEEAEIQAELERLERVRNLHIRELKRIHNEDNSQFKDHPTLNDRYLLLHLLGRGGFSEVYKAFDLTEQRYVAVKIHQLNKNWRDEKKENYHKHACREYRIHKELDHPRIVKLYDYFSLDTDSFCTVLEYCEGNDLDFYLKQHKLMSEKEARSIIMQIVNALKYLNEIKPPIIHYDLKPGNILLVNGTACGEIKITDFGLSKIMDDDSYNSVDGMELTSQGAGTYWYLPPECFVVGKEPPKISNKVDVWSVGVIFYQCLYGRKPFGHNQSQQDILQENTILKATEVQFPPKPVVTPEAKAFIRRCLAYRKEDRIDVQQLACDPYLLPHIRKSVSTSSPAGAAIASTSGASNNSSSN
UniProt Q8N568, sequence (whole entry, looked up): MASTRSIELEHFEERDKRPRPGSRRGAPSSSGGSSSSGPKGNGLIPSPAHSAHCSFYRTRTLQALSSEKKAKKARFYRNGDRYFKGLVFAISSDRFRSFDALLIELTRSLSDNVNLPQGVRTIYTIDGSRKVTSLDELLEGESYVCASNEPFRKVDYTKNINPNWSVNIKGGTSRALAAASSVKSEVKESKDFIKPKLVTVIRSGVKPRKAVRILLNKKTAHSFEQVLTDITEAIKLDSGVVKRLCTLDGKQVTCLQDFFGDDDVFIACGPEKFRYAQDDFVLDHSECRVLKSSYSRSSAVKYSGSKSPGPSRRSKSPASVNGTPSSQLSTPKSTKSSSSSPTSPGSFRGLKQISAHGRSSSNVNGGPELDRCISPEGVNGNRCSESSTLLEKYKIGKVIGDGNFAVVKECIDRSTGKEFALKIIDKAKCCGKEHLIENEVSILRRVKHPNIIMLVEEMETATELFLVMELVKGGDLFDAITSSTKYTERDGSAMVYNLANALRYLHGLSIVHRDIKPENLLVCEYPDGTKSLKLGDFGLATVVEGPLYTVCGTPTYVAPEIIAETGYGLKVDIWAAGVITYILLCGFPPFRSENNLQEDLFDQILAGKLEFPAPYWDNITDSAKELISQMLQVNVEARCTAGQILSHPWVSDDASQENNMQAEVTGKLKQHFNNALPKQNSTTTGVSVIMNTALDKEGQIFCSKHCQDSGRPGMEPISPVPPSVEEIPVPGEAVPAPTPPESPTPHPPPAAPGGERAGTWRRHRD
UniProt P08581, sequence (whole entry, looked up): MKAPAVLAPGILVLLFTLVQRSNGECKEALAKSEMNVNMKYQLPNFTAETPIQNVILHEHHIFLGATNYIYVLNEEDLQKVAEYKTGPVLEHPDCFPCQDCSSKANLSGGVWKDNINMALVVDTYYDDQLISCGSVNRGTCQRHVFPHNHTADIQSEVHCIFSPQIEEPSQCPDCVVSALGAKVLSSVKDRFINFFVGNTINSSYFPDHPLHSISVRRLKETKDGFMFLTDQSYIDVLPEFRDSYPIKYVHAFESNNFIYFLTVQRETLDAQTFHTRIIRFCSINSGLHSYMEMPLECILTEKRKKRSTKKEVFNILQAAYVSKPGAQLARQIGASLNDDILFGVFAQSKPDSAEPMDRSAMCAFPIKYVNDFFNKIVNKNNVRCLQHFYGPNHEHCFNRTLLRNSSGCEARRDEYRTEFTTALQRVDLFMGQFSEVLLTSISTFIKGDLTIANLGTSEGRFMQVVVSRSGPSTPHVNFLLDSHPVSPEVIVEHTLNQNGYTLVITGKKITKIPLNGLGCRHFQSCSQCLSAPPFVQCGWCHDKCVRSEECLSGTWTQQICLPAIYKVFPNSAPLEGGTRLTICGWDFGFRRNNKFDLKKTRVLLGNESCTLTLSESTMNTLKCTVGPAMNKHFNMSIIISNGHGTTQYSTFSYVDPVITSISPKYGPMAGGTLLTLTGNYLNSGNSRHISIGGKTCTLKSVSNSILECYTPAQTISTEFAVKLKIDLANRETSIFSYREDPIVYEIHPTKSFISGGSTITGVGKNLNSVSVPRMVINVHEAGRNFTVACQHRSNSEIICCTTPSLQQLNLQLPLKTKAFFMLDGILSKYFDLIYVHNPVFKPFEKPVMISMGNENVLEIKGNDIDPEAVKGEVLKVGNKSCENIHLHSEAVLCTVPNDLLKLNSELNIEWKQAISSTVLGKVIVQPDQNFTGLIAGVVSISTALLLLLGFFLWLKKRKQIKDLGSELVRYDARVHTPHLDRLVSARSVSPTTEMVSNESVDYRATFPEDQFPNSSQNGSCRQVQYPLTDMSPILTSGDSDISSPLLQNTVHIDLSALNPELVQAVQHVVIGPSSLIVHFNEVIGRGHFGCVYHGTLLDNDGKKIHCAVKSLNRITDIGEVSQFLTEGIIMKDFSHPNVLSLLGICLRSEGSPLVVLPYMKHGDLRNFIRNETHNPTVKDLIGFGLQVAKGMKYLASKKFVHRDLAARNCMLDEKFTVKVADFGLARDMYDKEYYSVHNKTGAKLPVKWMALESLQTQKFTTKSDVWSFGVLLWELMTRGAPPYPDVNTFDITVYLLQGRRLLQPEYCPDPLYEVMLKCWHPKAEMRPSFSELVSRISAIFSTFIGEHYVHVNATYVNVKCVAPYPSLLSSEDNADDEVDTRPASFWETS
UniProt Q13237, sequence (whole entry, looked up): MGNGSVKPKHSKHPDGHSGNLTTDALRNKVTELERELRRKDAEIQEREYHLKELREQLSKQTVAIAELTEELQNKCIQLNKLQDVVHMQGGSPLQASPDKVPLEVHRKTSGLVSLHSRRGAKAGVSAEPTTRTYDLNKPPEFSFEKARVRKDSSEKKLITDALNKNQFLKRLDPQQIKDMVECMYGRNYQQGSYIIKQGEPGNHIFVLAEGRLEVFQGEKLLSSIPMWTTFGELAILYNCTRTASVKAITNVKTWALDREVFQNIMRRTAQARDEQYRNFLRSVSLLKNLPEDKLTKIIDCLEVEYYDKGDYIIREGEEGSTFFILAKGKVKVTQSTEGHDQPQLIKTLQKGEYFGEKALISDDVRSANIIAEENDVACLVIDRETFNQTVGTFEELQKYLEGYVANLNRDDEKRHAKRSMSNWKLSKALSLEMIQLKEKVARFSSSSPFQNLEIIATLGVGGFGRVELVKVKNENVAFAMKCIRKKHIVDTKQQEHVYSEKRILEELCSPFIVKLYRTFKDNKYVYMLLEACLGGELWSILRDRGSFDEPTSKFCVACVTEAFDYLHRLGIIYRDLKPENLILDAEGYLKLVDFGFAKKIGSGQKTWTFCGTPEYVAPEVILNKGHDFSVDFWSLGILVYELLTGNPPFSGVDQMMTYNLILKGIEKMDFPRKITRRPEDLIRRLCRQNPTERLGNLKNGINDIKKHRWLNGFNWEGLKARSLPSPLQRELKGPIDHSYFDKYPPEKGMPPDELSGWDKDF
UniProt P06493, sequence (whole entry, looked up): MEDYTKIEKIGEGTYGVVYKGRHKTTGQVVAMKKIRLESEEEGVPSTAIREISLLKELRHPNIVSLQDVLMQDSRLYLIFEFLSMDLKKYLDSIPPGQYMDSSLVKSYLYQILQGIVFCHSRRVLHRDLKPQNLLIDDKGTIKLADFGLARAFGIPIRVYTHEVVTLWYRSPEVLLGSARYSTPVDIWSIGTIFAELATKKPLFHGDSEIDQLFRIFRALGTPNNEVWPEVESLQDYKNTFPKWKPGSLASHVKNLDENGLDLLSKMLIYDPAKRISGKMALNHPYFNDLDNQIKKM

Set 1
Target: Calcium/calmodulin-dependent protein kinase type II subunit alpha (CAMK2A, Homo sapiens, UniProt Q9UQM7)
UniProt Q9UQM7, sequence (whole entry, looked up): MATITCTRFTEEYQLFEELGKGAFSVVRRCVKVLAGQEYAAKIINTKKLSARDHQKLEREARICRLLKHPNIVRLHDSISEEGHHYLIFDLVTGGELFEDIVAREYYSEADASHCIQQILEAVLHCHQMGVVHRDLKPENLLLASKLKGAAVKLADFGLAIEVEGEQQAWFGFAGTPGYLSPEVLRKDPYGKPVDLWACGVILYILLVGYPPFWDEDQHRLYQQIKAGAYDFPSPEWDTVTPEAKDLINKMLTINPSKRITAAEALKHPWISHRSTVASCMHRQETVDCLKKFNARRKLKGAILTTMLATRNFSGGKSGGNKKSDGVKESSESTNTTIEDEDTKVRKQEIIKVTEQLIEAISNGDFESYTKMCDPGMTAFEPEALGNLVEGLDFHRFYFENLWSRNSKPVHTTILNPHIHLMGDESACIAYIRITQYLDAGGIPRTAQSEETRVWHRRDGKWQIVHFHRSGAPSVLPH
Effect on: enzyme activity
Action: inhibitor
Concentration: 10 µM
Structure (SMILES)	inhibition [%]
CCCCCCCC/C=C\CCCCCCCCCC(=O)O	-39
O=C(O)C(O)Cc1ccccc1 (racemic)	-7
CC(C)(O)c1ccccc1CC[C@@H](SCC1(CC(=O)O)CC1)c1cccc(/C=C/c2ccc3ccc(Cl)cc3n2)c1	-6
Cc1ccc(NC(=O)C2(c3ccc4c(c3)OC(F)(F)O4)CC2)nc1-c1cccc(C(=O)O)c1	6
CC[C@@]1(O)C(=O)OCc2c1cc1n(c2=O)Cc2cc3c(N)cccc3nc2-1	-61
COc1cc(CCCO)cc(OC)c1O	0
CCCCOC(=O)c1ccc(N)cc1	1
CCOCCN(Cc1ccc(CN(CCOCC)C(=O)C(Cl)Cl)cc1)C(=O)C(Cl)Cl	-5

Set 2
Structure (SMILES): C=CC(=O)N1CCC[C@@H](n2nc(-c3ccc(Oc4ccccc4)cc3)c3c(N)ncnc32)C1
Effect on: enzyme activity
Action: inhibitor
Concentration: 1 µM
target	inhibition [%]
Mitogen-activated protein kinase kinase kinase 15 (MAP3K15, Homo sapiens, UniProt Q6ZN16)	0
Fibroblast growth factor receptor 1 (FGFR1, Homo sapiens, UniProt P11362)	61
Serine/threonine-protein kinase MARK1 (MARK1, Homo sapiens, UniProt Q9P0L2)	9
RAC-beta serine/threonine-protein kinase (AKT2, Homo sapiens, UniProt P31751)	6
Serine/threonine-protein kinase tousled-like 2 (TLK2, Homo sapiens, UniProt Q86UE8)	4
Wee1-like protein kinase (WEE1, Homo sapiens, UniProt P30291)	0
Serine/threonine-protein kinase Nek11 (NEK11, Homo sapiens, UniProt Q8NG66)	13
Mitogen-activated protein kinase 1 (MAPK1, Homo sapiens, UniProt P28482)	11
Serine/threonine-protein kinase 24 (STK24, Homo sapiens, UniProt Q9Y6E0)	21

Set 3
Compound: O=C1CCc2cc(Nc3cc(OC4CCOCC4)c([N+](=O)[O-])cc3Cl)ccc2N1
Effect on: cell-free assay
Method: competition with immobilised ligand
Concentration: 1 µM
target	remaining binding
Mitogen-activated protein kinase 11 (MAPK11, Homo sapiens, UniProt Q15759)	88%
Phosphatidylinositol 4,5-bisphosphate 3-kinase catalytic subunit alpha isoform (PIK3CA, Homo sapiens, UniProt P42336, E542K)	71%
LIM domain kinase 2 (LIMK2, Homo sapiens, UniProt P53671)	100%
Cyclin-dependent kinase 17 (CDK17, Homo sapiens, UniProt Q00537)	91%
Casein kinase II subunit alpha' (CSNK2A2, Homo sapiens, UniProt P19784)	76%
RAC-beta serine/threonine-protein kinase (AKT2, Homo sapiens, UniProt P31751)	82%
Ribosomal protein S6 kinase alpha-2, N-terminal kinase domain (RPS6KA2, Homo sapiens, UniProt Q15349)	100%
Bone morphogenetic protein receptor type-2 (BMPR2, Homo sapiens, UniProt Q13873)	92%

Set 4
SMILES: COc1ccc(-c2cnc3c(-c4ccsc4)cnn3c2)cc1
Effect on: enzyme activity
Action: inhibitor
Concentration: 0.5 µM
Baseline: control
target	remaining activity [%]
Calcium/calmodulin-dependent protein kinase type 1B (PNCK, Homo sapiens, UniProt Q6P2M8)	90.9
MAP/microtubule affinity-regulating kinase 4 (MARK4, Homo sapiens, UniProt Q96L34)	92.7
Hepatocyte growth factor receptor (MET, Homo sapiens, UniProt P08581)	86.3
Serine/threonine-protein kinase PAK 3 (PAK3, Homo sapiens, UniProt O75914)	96.4
Cyclin-dependent kinase 1, with cyclin A (CDK1, Homo sapiens, UniProt P06493)	87.4
G protein-coupled receptor kinase 4 (GRK4, Homo sapiens, UniProt P32298)	97
Serine/threonine-protein kinase DCLK2 (DCLK2, Homo sapiens, UniProt Q8N568)	97.5
Misshapen-like kinase 1 (MINK1, Homo sapiens, UniProt Q8N4C8)	63.7
Serine/threonine-protein kinase Nek3 (NEK3, Homo sapiens, UniProt P51956)	87.7
Serine/threonine-protein kinase tousled-like 2 (TLK2, Homo sapiens, UniProt Q86UE8)	96.2
cGMP-dependent protein kinase 2 (PRKG2, Homo sapiens, UniProt Q13237)	92
Calcium/calmodulin-dependent protein kinase type IV (CAMK4, Homo sapiens, UniProt Q16566)	98.4
Dual specificity mitogen-activated protein kinase kinase 1 (MAP2K1, Homo sapiens, UniProt Q02750)	98.2
Myosin-IIIb (MYO3B, Homo sapiens, UniProt Q8WXR4)	84

A few entries again (set 3):
target	remaining binding
Phosphatidylinositol 4,5-bisphosphate 3-kinase catalytic subunit alpha isoform (PIK3CA, Homo sapiens, UniProt P42336, E542K)	71%
Cyclin-dependent kinase 17 (CDK17, Homo sapiens, UniProt Q00537)	91%
Ribosomal protein S6 kinase alpha-2, N-terminal kinase domain (RPS6KA2, Homo sapiens, UniProt Q15349)	100%
LIM domain kinase 2 (LIMK2, Homo sapiens, UniProt P53671)	100%
RAC-beta serine/threonine-protein kinase (AKT2, Homo sapiens, UniProt P31751)	82%
